Assay results gathered from unrelated publications.
Each line is one published result; not all experiments were run side by side. ± gives the spread as reported.
Chain of UniProt Q9H4B4 (whole entry, looked up): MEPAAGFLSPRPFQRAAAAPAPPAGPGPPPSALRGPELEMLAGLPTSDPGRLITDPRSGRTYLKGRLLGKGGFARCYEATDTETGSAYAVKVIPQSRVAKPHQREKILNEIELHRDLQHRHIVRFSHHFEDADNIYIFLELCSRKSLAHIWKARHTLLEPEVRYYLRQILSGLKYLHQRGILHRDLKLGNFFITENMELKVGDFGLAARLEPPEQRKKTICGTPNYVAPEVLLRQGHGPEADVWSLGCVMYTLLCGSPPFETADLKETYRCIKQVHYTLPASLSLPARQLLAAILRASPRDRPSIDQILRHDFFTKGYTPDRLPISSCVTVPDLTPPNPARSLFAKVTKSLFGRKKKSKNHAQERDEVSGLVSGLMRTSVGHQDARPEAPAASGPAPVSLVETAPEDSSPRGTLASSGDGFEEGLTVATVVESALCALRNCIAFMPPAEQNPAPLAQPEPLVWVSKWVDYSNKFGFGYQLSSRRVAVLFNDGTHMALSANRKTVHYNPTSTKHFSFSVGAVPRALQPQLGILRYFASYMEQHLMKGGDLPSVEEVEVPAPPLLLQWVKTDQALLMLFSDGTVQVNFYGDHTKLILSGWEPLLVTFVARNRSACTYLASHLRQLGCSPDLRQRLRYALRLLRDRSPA
Chain of UniProt P32239 (whole entry, looked up): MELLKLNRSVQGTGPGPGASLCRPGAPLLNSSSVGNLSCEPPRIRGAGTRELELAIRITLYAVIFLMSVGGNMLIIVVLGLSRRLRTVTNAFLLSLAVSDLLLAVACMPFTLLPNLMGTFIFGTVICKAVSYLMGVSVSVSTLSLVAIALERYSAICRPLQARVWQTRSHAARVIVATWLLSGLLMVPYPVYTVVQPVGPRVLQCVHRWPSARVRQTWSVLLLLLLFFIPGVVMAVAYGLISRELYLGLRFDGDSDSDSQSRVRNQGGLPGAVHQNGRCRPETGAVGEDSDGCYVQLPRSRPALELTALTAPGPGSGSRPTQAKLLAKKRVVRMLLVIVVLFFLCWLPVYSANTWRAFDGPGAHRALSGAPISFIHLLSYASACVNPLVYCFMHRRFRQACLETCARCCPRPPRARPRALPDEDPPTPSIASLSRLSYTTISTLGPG
Chain of UniProt P45880 (whole entry, looked up): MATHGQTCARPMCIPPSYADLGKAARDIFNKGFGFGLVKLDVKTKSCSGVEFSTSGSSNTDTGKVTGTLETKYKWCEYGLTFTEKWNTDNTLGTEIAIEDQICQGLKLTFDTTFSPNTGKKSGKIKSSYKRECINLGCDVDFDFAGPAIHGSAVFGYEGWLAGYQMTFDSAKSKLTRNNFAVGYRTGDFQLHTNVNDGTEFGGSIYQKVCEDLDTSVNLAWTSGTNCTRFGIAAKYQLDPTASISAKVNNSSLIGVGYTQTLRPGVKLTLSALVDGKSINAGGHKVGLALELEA

COc1c(CCC[P+](c2ccccc2)(c2ccccc2)c2ccccc2)cc2c(c1OC)OCO2.[I-] — TGI (SK-OV-3; SRB): -5.07 log M
COc1cc(Nc2ncc(F)c(Nc3ccc4c(n3)NC(=O)C(C)(C)O4)n2)cc(OC)c1OC — IC50 (CCKBR (Homo sapiens, UniProt P32239)): > 10 µM
COc1ccc(N2C(=O)N(c3c(C)cccc3Cl)Cc3cnc(Nc4ccc(C5CCN(C)CC5)cc4OC)nc32)nc1 — inhibition (PLK3 (Homo sapiens, UniProt Q9H4B4); kinase activity; 0.5 µM): 1.27%
CC[C@H](C)[C@@H]1NC(=O)[C@@H]2CCCN2C(=O)[C@H](CC(C)C)NC(=O)[C@H](CC(C)C)NC(=O)CNC(=O)[C@@H](NC(=O)[C@@H](NC(=O)[C@H](CC(=O)O)NC(=O)CNC(=O)[C@@H](NC(=O)[C@H](C)NC(=O)CNC(=O)[C@H](CCCCN)NC(=O)[C@H](CC(C)C)NC(=O)[C@H](CC(C)C)NC(=O)[C@H](CCCCN)NC(=O)CNC(=O)[C@@H](NC(=O)[C@@H](N)CC(C)C)C(C)C)C(C)C)C(C)C)CSSC[C@@H](C(=O)O)NC1=O — log2 fold change (RNA-seq, item: Irf1; mouse, traumatic brain injury model, frontal cortex and hippocampus; dose not given; relative to: TBI alone): -1.54
Cc1ccc2[nH]c3c(c2c1)CCCC3NCCc1ccc(F)cc1 (stereo not drawn) — MIC fold change (Streptococcus pneumoniae; concentration not given, 10% fetal bovine serum; relative to: without serum): 4
CC12CC3CC(C)(C1)CC(N)(C3)C2 — IC50 (Plasmodium falciparum; 7G8): 10 µM
CC[C@H](C)[C@H](NC(=O)[C@H](Cc1ccccc1)NC(=O)[C@H](CCC(=O)O)NC(=O)[C@H](CCCNC(=N)N)NC(=O)[C@H](C)NC(=O)[C@H](C)NC(=O)[C@H](CCC(N)=O)NC(=O)[C@H](CCC(=O)O)NC(=O)[C@H](CCC(=O)O)NC(=O)[C@H](CC(C)C)NC(=O)[C@H](Cc1ccc(O)cc1)NC(=O)[C@H](CO)NC(=O)[C@H](CO)NC(=O)[C@@H](NC(=O)[C@H](CC(=O)O)NC(=O)[C@H](CO)NC(=O)[C@@H](NC(=O)[C@H](Cc1ccccc1)NC(=O)[C@@H](NC(=O)CNC(=O)[C@H](CCC(=O)O)NC(=O)[C@H](C)NC(=O)CCc1c[nH]cn1)[C@@H](C)O)[C@@H](C)O)C(C)C)C(=O)N[C@@H](C)C(=O)N[C@@H](Cc1c[nH]c2ccccc12)C(=O)N[C@@H](CC(C)C)C(=O)N[C@H](C(=O)N[C@@H](CCCNC(=N)N)C(=O)NCC(=O)N[C@@H](CCCNC(=N)N)C(=O)N[C@@H](CCCCNC(=O)COCCOCCNC(=O)COCCOCCNC(=O)CC[C@H](NC(=O)CCCCCCCCCCCCCCCCC(=O)O)C(=O)O)C(=O)NCC(=O)NCC(=O)N[C@@H](CO)C(=O)N[C@@H](CCCCNc1c(NCCCCCN(O)C(=O)CCC(=O)NCCCCCN(O)C(=O)CCC(=O)NCCCCCN(O)C(C)=O)c(=O)c1=O)C(=O)O)C(C)C [zirconium-89 labelled] — tissue uptake (gamma counting; rat, colon content; intravenous, 3 nmol/kg, 4 h): 0.01 %ID/g
CS(=O)(=O)CCCn1c(Cn2c(=O)n(CC(F)(F)F)c3ccncc32)cc2cc(Cl)ccc21 — LS mean viral load change (respiratory syncytial virus; RT-qPCR; hospitalized infants 1-24 months, nasal swab; oral, 2, 1.5 or 1 mg/kg daily, day 7, low dose by age cohort; relative to: baseline): -4.41 log10 copies/mL
COc1cc(CCC[P+](c2ccccc2)(c2ccccc2)c2ccccc2)c(OC)c2c1OCO2.[I-] — TGI (A498; SRB): -5.37 log M
C[C@H]1CN(c2n[nH]c3nc(N[C@H]4CC[C@H](NS(=O)(=O)CCC(F)(F)F)CC4)ncc23)CCO1 — remaining binding (Non-selective voltage-gated ion channel VDAC2 (Homo sapiens, UniProt P45880); Kinobeads competition, item: VDAC2; 0.032 µM, unit not given; relative to: vehicle): 1.02
CC(C)[C@@H]1NC(=O)[C@@H](CCCN)NC(=O)[C@H]([C@@H](C)O)NC(=O)[C@@H](CCCN)NC(=O)[C@H](Cc2ccccc2)NC(=O)[C@@H](C)NC(=O)[C@@H](C(C)C)NC(=O)[C@@H](C)NC(=O)[C@H](Cc2c[nH]c3ccccc23)NC(=O)[C@@H](Cc2c[nH]c3ccccc23)NC1=O — IC90 (Naegleria fowleri; trophozoites): > 16 µg/mL
Cc1ccc(N2CCc3c(-c4cc5cccnc5nc4C)cc(C)nc32)c(Cl)c1 — EC50 (Plasmodium falciparum; parasite growth, SYBR Green; 3D7 wild type; 72 h): 291 ± 80 nM
OC(c1cc(C(F)(F)F)nc2c(C(F)(F)F)cccc12)C1CCCCN1 (stereo not drawn) — IC50 (Plasmodium falciparum; Dd2): 0.033 µM
COc1cc(N[C@H](C(=O)c2c[nH]c3ccc(OC(F)(F)F)cc23)c2ccc(Cl)cc2OC)cc(S(C)(=O)=O)c1 — inhibition (dengue virus 2; viral infection, luciferase reporter virus; 1 nM, 48 h): 99.9%
CC(C)[C@@H]1NC(=O)[C@@H](Cc2ccccc2)NC(=O)[C@H](Cc2ccccc2)NC(=O)[C@@H]([C@H](C)O)NC(=O)[C@H]([C@@H](C)O)NC(=O)[C@@H](CCCNC(=N)N)NC1=O — IC50 (Naegleria fowleri; trophozoites): > 16 µg/mL
C[C@@H](O)[C@@H](CO)NC(=O)[C@@H](CCCNC(=N)N)NC(=O)[C@@H]1CCCN1C(=O)[C@@H]1CSSC[C@H](NC(=O)[C@H](Cc2ccccc2)NC(=O)CN2CCN(CC(=O)O)CCN(CC(=O)O)CCN(CC(=O)O)CC2)C(=O)N[C@@H](Cc2ccc(O)cc2)C(=O)N[C@@H](Cc2ccccc2)C(=O)N[C@@H](CCC(N)=O)C(=O)N[C@@H](CC(N)=O)C(=O)N1 [gallium-68 labelled] — tissue uptake (Wistar rat, healthy, urinary bladder; intravenous, 8 MBq, 60 min): 2.03 %ID/g
COC(=O)C1=CNC=C(C(=O)OC)C1c1ccc(Cl)c([N+](=O)[O-])c1 — EC50 (Plasmodium falciparum; parasite growth, SYBR Green; 3D7 DHODH E182D; 72 h): 714 ± 130 nM
CC(C)[C@@H]1NC(=O)[C@H](Cc2ccccc2)NC(=O)[C@@H]2NC(=O)[C@H](Cc3ccccc3)NC(=O)[C@@H]3CCCN3C(=O)CNC(=O)[C@H](Cc3ccccc3)NC(=O)[C@@H]3CNCCCC[C@@H](C(=O)O)NC(=O)[C@@H]4NC(=O)[C@H](CC(N)=O)NC(=O)CNC(=O)[C@H]([C@@H](O)C(=O)O)NC(=O)[C@H](CSC[C@@H](NC(=O)[C@H](CCC(N)=O)NC(=O)[C@H](CCCCNC(=O)c5ccc(NN)nc5)NC(=O)[C@@H](N)CS[C@H]4C)C(=O)N[C@@H](CS[C@H]2C)C(=O)N3)NC1=O [technetium-99m labelled] — tissue uptake (rat, saline control, stomach; intravenous, 2 h after tracer, tracer 2 h after reperfusion): 0.08 ± 0.02 %ID/g
CC(C)[C@@H]1NC(=O)[C@@H](Cc2ccccc2)NC(=O)[C@H](Cc2ccccc2)NC(=O)[C@@H]([C@H](C)O)NC(=O)[C@@H](CCCNC(=N)N)NC1=O — IC90 (Acanthamoeba castellanii; trophozoites): > 16 µg/mL
CO[C@H]1C[C@@H]2CC[C@@H](C)[C@@](O)(O2)C(=O)C(=O)N2CCCC[C@H]2C(=O)O[C@H]([C@H](C)C[C@@H]2CC[C@@H](OC(=O)NCCOCCOCCOCCOCCOCCOCCOCCOCCC(=O)N3CCc4cc(Cn5nc(-c6ccc7oc(N)nc7c6)c6c(N)ncnc65)ccc4C3)[C@H](OC)C2)C[C@@H](O)[C@H](C)/C=C(\C)[C@@H](O)[C@@H](OC)C(=O)[C@H](C)C[C@H](C)/C=C/C=C/C=C/1C — fatigue incidence (patients with advanced solid tumours; intravenous, 10 mg weekly, any grade): 62.5%
CC(=O)O.CCc1cc2c(cc1CC)CC(NC[C@@H](O)c1ccc(O)c3[nH]c(=O)ccc13)C2 — EC50 ratio (Plasmodium falciparum; parasite growth, SYBR Green; 72 h; relative to: 3D7-E182D over 3D7): 1.3
CN[C@H](CC(C)C)C(=O)N[C@H]1C(=O)N[C@@H](CC(N)=O)C(=O)N[C@H]2C(=O)N[C@H]3C(=O)N[C@H](C(=O)N[C@H](C(=O)O)c4cc(O)cc(O)c4-c4cc3ccc4O)[C@H](O)c3ccc(c(Cl)c3)Oc3cc2cc(c3O[C@@H]2O[C@H](CO)[C@@H](O)[C@H](O)[C@H]2O[C@H]2C[C@](C)(N)[C@H](O)[C@H](C)O2)Oc2ccc(cc2Cl)[C@H]1O — biofilm inhibition (Staphylococcus aureus; MRSA ATCC 33591; 1/4 × MIC): 94.9%
C[C@@H](O)[C@@H]1NC(=O)[C@H](Cc2ccccc2)NC(=O)[C@@H](Cc2ccccc2)NC(=O)[C@H]([C@@H](C)O)NC(=O)[C@@H](CCCN)NC(=O)[C@H](CCCN)NC(=O)[C@@H](CCCCN)NC1=O — IC90 (Acanthamoeba castellanii; trophozoites): > 16 µg/mL
COc1ccc(-n2ccnc2SCC(=O)Nc2cccc(C(F)(F)F)c2)c(OC)c1 — EC50 (Plasmodium falciparum; parasite growth; Dd2): 92 ± 33 nM
CCC1(C2=NCCN2)Cc2ccccc2O1 (stereo not drawn) — IC50 (Plasmodium falciparum; W2): 3.16 µM
CC(C)[C@H]1NC(=O)[C@H](Cc2ccccc2)NC(=O)CNC(=O)[C@@H](Cc2ccccc2)NC(=O)[C@H](CCC(N)=O)NC(=O)[C@@H](CCCN)NC1=O — IC50 (Naegleria fowleri; trophozoites): > 16 µg/mL
CN(C)c1ccc(O)c2c1C[C@H]1C[C@H]3[C@H](N(C)C)C(O)=C(C(N)=O)C(=O)[C@@]3(O)C(O)=C1C2=O — IC50 (Plasmodium falciparum; Dd2): 3.98 µM
O=C(NC1CC1)c1ccc(N2CCOc3ccc(Cl)cc32)s1 — EC50 (Plasmodium falciparum; parasite growth, SYBR Green; 3D7 wild type; 72 h): 779 ± 370 nM
CC(C)[C@H]1NC(=O)[C@@H]([C@H](C)O)NC(=O)[C@H](CO)NC(=O)[C@@H](CCCNC(=N)N)NC(=O)CNC(=O)[C@H](Cc2ccccc2)NC(=O)[C@H]([C@@H](C)O)NC1=O — IC90 (Acanthamoeba castellanii; trophozoites): > 16 µg/mL
CC(COc1ccccc1)N(CCCl)Cc1ccccc1 (stereo not drawn) — IC50 (Plasmodium falciparum; D10): 10 µM
COc1cc2c(Oc3ccc4[nH]c(C)cc4c3F)ccnc2cc1OCC1(N)CC1 — grade 3 Hyperthyroidism (paediatric recurrent refractory sarcoma; 8 mg): 0%
Cc1ccc2c(c1)CC[C@@](CCN(C)CCCc1nc3ccccc3[nH]1)(OC(=O)C1CC1)[C@H]2C(C)C — IC50 (Plasmodium falciparum; HB3): 3.98 µM
CCN(CC)CCO[C@H]1CC[C@@]2(C)C(=CC[C@@H]3[C@@H]2CC[C@]2(C)C(=O)CC[C@@H]32)C1 — EC90 (human rotavirus; viral replication, focus reduction; MA104): 20.9 µM

Repeated from above:
CC(C)[C@H]1NC(=O)[C@@H]([C@H](C)O)NC(=O)[C@H](CO)NC(=O)[C@@H](CCCNC(=N)N)NC(=O)CNC(=O)[C@H](Cc2ccccc2)NC(=O)[C@H]([C@@H](C)O)NC1=O — IC90 (Acanthamoeba castellanii; trophozoites): > 16 µg/mL
CC(C)[C@@H]1NC(=O)[C@@H](CCCN)NC(=O)[C@H]([C@@H](C)O)NC(=O)[C@@H](CCCN)NC(=O)[C@H](Cc2ccccc2)NC(=O)[C@@H](C)NC(=O)[C@@H](C(C)C)NC(=O)[C@@H](C)NC(=O)[C@H](Cc2c[nH]c3ccccc23)NC(=O)[C@@H](Cc2c[nH]c3ccccc23)NC1=O — IC90 (Naegleria fowleri; trophozoites): > 16 µg/mL
O=C(NC1CC1)c1ccc(N2CCOc3ccc(Cl)cc32)s1 — EC50 (Plasmodium falciparum; parasite growth, SYBR Green; 3D7 wild type; 72 h): 779 ± 370 nM
CC(C)[C@H]1NC(=O)[C@H](Cc2ccccc2)NC(=O)CNC(=O)[C@@H](Cc2ccccc2)NC(=O)[C@H](CCC(N)=O)NC(=O)[C@@H](CCCN)NC1=O — IC50 (Naegleria fowleri; trophozoites): > 16 µg/mL
